# Published values of several laboratories.
# Every numbered part comes from another study and shows a few of its results, in no order. Changes are numbered by the printed parent chain.

# Series 1
# Target: CREBL2, bZIP domain (human)
# Technique: DHFR protein complementation
# Sample: yeast
# Notes: single substitutions, most at no-binding floor
# Reference: wild-type JUN-FOS pair
# Reading: higher = stronger binding
# Parent: JUN, bZIP domain (human); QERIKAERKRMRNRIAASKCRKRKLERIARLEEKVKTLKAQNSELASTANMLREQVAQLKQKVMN; partner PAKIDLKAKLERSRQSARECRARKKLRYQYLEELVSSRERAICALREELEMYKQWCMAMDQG
Variant,binding fitness
E54G,-1.48 natural log
L45R,-1.44 natural log
A40Y,-1.45 natural log
L38A,-1.3 natural log
M51S,-1.28 natural log
K34H,-1.55 natural log
L52C,-1.43 natural log
E54D,-1.46 natural log
A49C,-1.56 natural log
K39S,-1.52 natural log
E32S,-1.56 natural log
L45K,-1.63 natural log
V56H,-1.51 natural log
S43I,-1.24 natural log
I28R,-1.45 natural log
K34P,-1.54 natural log
A40C,-1.32 natural log
L52H,-1.43 natural log

# Series 2
# Target: ABI1, truncated, D143A, DHFR fusion (Arabidopsis thaliana)
# Technique: DHFR PCA, deep sequencing
# Sample: yeast
# Notes: methotrexate growth selection, single substitutions
# Added: (+)-ABA 0.032 µM
# Reference: wild-type fitted maximum
# Reading: higher = stronger binding
# Parent: PYL1, truncated, DHFR fusion (Arabidopsis thaliana); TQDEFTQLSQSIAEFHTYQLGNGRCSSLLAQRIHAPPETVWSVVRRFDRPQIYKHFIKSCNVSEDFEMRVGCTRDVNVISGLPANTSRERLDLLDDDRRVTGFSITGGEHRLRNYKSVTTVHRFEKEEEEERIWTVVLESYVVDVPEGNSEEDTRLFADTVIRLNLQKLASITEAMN
Variant,relative binding score [%]
P50A,-4.11
E129I,11.7
G23A,4.52
D65R,3.79
E89P,1.9
G102N,-4.25
Q2T,27
L164P,8
N114K,-4.17
E125N,24.6
G102Y,-7.54
P36I,2.51
E151F,-1.28
E151W,4
N85R,54.5
L169T,-2.4
S171P,5.03
T1N,30.2
E38R,1.83

# Series 3
# Target: Interferon regulatory factor 7, full length, phosphomimetic (IRF7, Homo sapiens, UniProt Q92985, residues 1-503, S471D/S472D/S475D/S476D/S477D/S483D/S484D/S487D)
# Chain of UniProt Q92985 (whole entry, unmodified, looked up): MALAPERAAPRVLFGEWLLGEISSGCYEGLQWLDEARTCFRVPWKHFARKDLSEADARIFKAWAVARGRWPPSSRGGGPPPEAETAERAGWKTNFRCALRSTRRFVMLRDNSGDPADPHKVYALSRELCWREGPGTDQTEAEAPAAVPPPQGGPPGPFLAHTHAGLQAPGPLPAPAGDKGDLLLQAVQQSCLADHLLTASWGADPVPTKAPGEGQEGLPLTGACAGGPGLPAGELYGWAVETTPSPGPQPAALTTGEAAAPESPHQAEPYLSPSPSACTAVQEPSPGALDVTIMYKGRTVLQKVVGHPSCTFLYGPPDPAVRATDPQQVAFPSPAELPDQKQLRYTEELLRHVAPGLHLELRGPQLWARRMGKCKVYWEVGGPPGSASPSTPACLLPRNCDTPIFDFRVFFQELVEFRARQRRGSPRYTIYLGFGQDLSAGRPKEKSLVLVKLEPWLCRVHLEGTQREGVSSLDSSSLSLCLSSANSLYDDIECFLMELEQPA
# Technique: protein-binding microarray
# Molecule type: double-stranded DNA, one strand shown
# Sample: in vitro
# Concentration: 2200 nM top
# Notes: 60-bp whole probe
# Added: salmon DNA 0.4 mg/ml
# Reference: random background probes
# Reading: higher = stronger binding
# Constant ends, left off below: GCCTAGCAC … GTCTTGATTCGCTTGACGCTGCTG
Strand,fitted relative affinity [z-score]
GACCGTATCGACACTGGGGACGTGCTA,0.255
GACGGTCTCGGACTGGGCACGTGCTAG,-0.73
GACGGTTTCGGTTCCGGTACGTGCTAG,11.5
TTAGGTATCGGGTATCGATTAGTGCTA,0.321
GACGATATCAGTATCGAGAGGTGCTAG,0.159
GTAGGTCTCCTTATCCTTTAGTGCTAG,0.914
TTAGAGCTGAGTCTCGATTAGTGCTAG,-0.467
TTAGGTATCGCGACTGGGTTAGTGCTA,0.101
GACGGACTGGGGTTTCGGGCCGTGCTA,-0.16
TCAGCTTTCTTTTATGCACTGTGCTAG,1.39
TTAGGACCGCTTTTCCTTTAGTGCTAG,1.71
TTAGAACTGAATATCGATTAGTGCTAG,-0.569
TCAGATCTCAGACTGGATTAGTGCTAG,0.135
TTGGGACTGGACACTGGGTTAGTGCTA,-0.885
ACAAAGATTTTTATCAAATGGTGCTAG,-0.644
TGGAACTTAAAAGAAAGATAGTGCTAG,-1.42
TTAGATCTCAGTTTCGAATAGTGCTAG,2.36
TTAGGTTTCGGTCTCGGTTTGTGCTAG,7.55

# Series 4
# Target: Prothrombin, mature alpha-thrombin (F2, Homo sapiens, UniProt P00734)
# Technique: aptamer microarray, sandwich
# Molecule type: DNA with 2'F-ANA
# Sample: in vitro
# Concentration: 200 nM
# Notes: whole 15-mer aptamer, many near background
# Added: Cy3 exosite-II aptamer, 400 nM
# Reading: higher = stronger binding
# Strand: GGTTGGTGTGGTTGG
Modification,mean fluorescence intensity [a.u.]
2'F-ANA at 4 5 7 8 9 10 12 14 15,47.8
2'F-ANA at 2 6 7 8 9 10 13 14,113
2'F-ANA at 2 6 9 10 13 14 15,93.4
2'F-ANA at 3 4 5 7 9 10 13 14,49.3
2'F-ANA at 1 3 6 7 8 10 12 13 14,80.8
2'F-ANA at 1 2 3 5 6 9 11 12 13 14,52.3
2'F-ANA at 1 2 5 7 8 9 10 13 14,77.2
2'F-ANA at 1 2 5 6 7 8 9 11 12 15,91.6
2'F-ANA at 2 5 6 14 15,44.9
2'F-ANA at 1 2 3 8 9 11 12,357
2'F-ANA at 5 7 10 11 12 15,52.5
2'F-ANA at 1 3 7 8 13 14,119
2'F-ANA at 1 2 4 10 12 15,57.6
2'F-ANA at 7 8 10 12 13,269
2'F-ANA at 3 5 7 9 10 11 12,77.6
2'F-ANA at 3 5 8 9 10 13,57.5
2'F-ANA at 2 7 9 10 13 15,117
2'F-ANA at 2 5 6 7 8 11 13,54.4
2'F-ANA at 3 4 8 9 10,339
2'F-ANA at 1 3 5 6 9 10 11 13 14 15,52.5
2'F-ANA at 3 8 11 12 14 15,575
2'F-ANA at 3 7 9 11 13 15,956
2'F-ANA at 2 3 4 6 7 9 10 12 14,165
2'F-ANA at 2 3 4 7 9 11 13,460
2'F-ANA at 4 5 6 10 13 15,44.6

# Series 5
# Target: CCNB3, cyclin fold, Cln2 fusion (human)
# Technique: yeast growth competition, sequencing
# Sample: yeast
# Notes: weak parent motif
# Reference: not given
# Reading: higher = stronger binding
# Parent: RP1L1 docking peptide (human); TLGLGPLSFTLED; partner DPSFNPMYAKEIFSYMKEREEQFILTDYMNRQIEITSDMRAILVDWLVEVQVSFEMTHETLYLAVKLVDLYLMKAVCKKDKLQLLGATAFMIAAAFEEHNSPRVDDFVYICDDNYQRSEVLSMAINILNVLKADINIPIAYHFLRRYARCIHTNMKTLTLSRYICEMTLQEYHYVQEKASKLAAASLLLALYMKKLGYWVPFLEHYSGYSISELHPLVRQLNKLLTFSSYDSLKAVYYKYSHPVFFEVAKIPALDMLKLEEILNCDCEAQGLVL
Variant,normalised enrichment score
TLGLGPLSFALED [T10A],0.229
TLGLGPLSFTLAD [E12A],-0.0576
TLGLGPLAFTLED [S8A],-0.109
TLGLGPLSFTLEA [D13A],0.0782
TLGAGPLSFTLED [L4A],-0.195
TLGLGALSFTLED [P6A],-0.141

# Series 6
# Target: Centromere-binding protein 1, full length, His-tagged (CBF1, Saccharomyces cerevisiae, UniProt P17106, residues 1-351)
# Chain of UniProt P17106 (whole entry, looked up): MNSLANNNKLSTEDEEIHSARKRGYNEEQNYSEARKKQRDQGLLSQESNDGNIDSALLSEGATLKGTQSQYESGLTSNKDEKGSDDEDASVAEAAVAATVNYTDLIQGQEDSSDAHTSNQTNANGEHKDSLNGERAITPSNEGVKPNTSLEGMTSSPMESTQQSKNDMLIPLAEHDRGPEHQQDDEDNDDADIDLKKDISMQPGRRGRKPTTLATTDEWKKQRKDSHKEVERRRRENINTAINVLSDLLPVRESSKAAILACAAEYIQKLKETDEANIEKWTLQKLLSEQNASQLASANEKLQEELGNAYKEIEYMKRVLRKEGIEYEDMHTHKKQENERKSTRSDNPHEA
# Technique: competition protein-binding microarray
# Molecule type: double-stranded DNA, one strand shown
# Sample: in vitro
# Concentration: 2 µM
# Notes: whole 60-bp probe, lowest competitor level
# Added: Pho4 competitor, 0.05 µM
# Reading: higher = stronger binding
# Constant ends, left off below: … GTCTTGATTCGCTTGACGCTGCTG
Strand,fluorescence intensity [a.u.]
AAATTACTAAGTTGGCCGGTGGGTGACGCCGTATGA,64.4
AGCCACAGTTCGAGTCACGTGCGGACCATGCTGACT,7850
CTATTACGGGCTTGGCTTGTGAAACTTTTCCTATAT,94.1
AACCTACAAAACACCGACGTGTTGAGCGTAAGAACC,88.8
CGTCCTAGTGATTGCGTTGTGGGTGCCATGAGGAAG,82.1
CCTTACAGGAGATCGGACGTGTGAAATTATTGTTAC,89.7
AGAGAGAACTTTGGACACGTTTATAAAAATTGACGG,135
ATCCCCTCTGTAAGACACGTTGGTCCACTGTAGCTT,81.6
CATACCCAACCTTGTGCGGTGGGTGAAGATATTTGT,63.6
TACCAGCACTTATAACAAATGATGACAGTAAGCGCA,77.9
GGAAGCATTTTCCATCACGTTATTCGGGGACACCCA,481
TAATAGCTTGAAAAGCACGTGAAGGGCTTGAAGCGG,1350
GTCTTGTCTCATTGCCAGGTGGGTGTCCCCACTTCA,76.7
GTCTTGTCTCATTGGTATGTGGGTGTCCCCACTTCA,96.2
TGCGCAACAACTTGGATGGTGGGTGTATGTCTAGAA,62.9
AATGCAAACTGGGAGAATGTGACTCGATCGAGGAAA,86.9
AATTTGGCGCCGAGTCACGATATACTTGTACAGTGA,161
AGCCGCAATACGTATCACATGGCTCAACCAATCTCG,954
AACATGAAATACGAATTTGTGATGAAGATACCCTCA,86.6
TCCTTCTTACCTTGGCGCATGATGTTGTTTGTGATG,107
CCATACCAAACAGCCCTCGTGGAGGAAAGAACGGTA,71.2
TTGAGCTACCCTTTGCACGTTCTTTCCAATATGCAG,117
CTTCTGTAAATTTGGTATGTGGGTGGACGCGCCCCG,91.9
CGTTCACTCATCCATAATTGATAAATTTGCGAAATT,93.6
CATACCCAACCTTGCCCCGTGGGTGAAGATATTTGT,89.8

# Repeated from above (series 1):
Variant,binding fitness
K34H,-1.55 natural log
L52C,-1.43 natural log
E54D,-1.46 natural log
A49C,-1.56 natural log
K39S,-1.52 natural log
E32S,-1.56 natural log
L45K,-1.63 natural log
V56H,-1.51 natural log
S43I,-1.24 natural log
I28R,-1.45 natural log
